Results from different studies.
Each numbered part is a random draw from the data of one study; scales do not carry over between parts. Substitutions count along the parent as printed.

Block 1
Target: RING finger protein unkempt homolog, zinc fingers 1-6, GST-SBP tag (UNK, Homo sapiens, UniProt Q9C0B0, residues 30-357)
Chain of UniProt Q9C0B0 (30-357, looked up): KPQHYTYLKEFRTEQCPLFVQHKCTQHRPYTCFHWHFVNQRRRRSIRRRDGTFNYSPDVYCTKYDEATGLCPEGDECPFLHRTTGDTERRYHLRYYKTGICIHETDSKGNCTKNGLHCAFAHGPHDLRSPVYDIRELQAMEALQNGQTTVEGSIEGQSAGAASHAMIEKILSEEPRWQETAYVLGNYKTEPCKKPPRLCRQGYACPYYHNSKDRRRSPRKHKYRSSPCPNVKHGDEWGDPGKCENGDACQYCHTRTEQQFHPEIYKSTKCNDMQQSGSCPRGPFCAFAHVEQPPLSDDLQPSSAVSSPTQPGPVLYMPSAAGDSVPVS
Technique: RNA Bind-n-Seq
Form: RNA
Medium: in vitro
Concentration: not given
Notes: RNA with constant flanks, human and mouse sites, ends assumed
Baseline: input RNA pool
Reading: higher = stronger binding
All sequences stand within: GGGAGUUCUACAGUCCGACGAUC … CAACAGAGGAUUGAGCAUCA
| Strand | bound/input enrichment [ratio] |
| --- | --- |
| CCUCCUGAGGCCCUGGAUGAUUCUAAUUGUUAGAAAUUCUAAUUGUUAGAAAUCCUUCCUUAUAAUGAAUGAAUUCUGCUUUCCUAUAAUUUCUACCUAUUGGGCCUUGUUCUGUUCUCU | 0.404 |
| AUUUGUUUAGUGAAUGACCCUAGGCCCCAGCACAAGUACAACAAACUUUACACAGUGGAAUACUUAAGCAAUAUGGUUGGAGGGAGAAAAACUCUAUACAACAACCAGCCCAUUGACUUC | 0.397 |
| CCUGAGCUGAUGGUGGCUUCUUACAACAACAAUGAAGAUGCUCCCCAUGAACCAGAUGGAGUGGCCUUGGUUUGGAACAUGAAGUUUAAGAAAACCACACCAGAAUACGUCUUCCACUGU | 0.145 |
| GCCCCACUUGAGGUUUUCCGGCGAUUUGUGUGGAACUUCUUCCGCCUGGAGAAUGAACAUCUGAAUAACUGUGGUGAAUUCCGUGCUGUGCGGGACAUCUCUGUGGCCCCCCUGAACGCA | 0.393 |
| GUACAGCAGAAACCAGACUGCCGGCCAUAUUGGGAGAAGGAUGACCCUUCCAUGCCUCUGCCCUUUGACCUCACAGACGUGGUUUCCGAGCUCAGAGGCCAGCUGCUGGAAGCAAGAUCC | 0.103 |
| GAUCUAAAAAUGGGAAUGAAGUUUGUCAGUGAUGAACGCUACAAUGAAAGUGAAGAUGGUUUGGUUUCUCAUGUAGAUGGCUCCGUAAUUUCCAGGAGGGAGUGGUAUGUCUAACAGCCA | 0.184 |
| UGCUUUUGCUACCACUGGAAGUUCCUUCUGUUUCUUGUGGAGUACCUUUUGCUGUCUGGGACUUGUAGAUAAUGGUGUUUCCUAGGGCUCCCUCCAGGGCCCUCUGCCUCACUAACUGGA | 0.131 |
| UUGGCUUCAGUGCCCGCUGGAGCCUUUUCCCGCCUGCACAAGUUGGCACGACUGGACAUGACCUCCAACCGCCUAACCACCAUCCCUCCUGACCCACUCUUCUCACGUUUGCCACUGCUU | 0.235 |
| UGUGGGGAUCGACACAUAUGGUUCCAAGAUUUCAAAGCAGUGGAAUGAAAAUGGAGCAGCUGAUGUGUUUCAUUGUUGUAUUGGUCUUAAGAGUGUUUUUGUAGUCCUGCAGUCUCCAGU | 0.341 |
| UGUUACCUCAUUUAUACAGAUGAAACCCAGCCUGAGAUGGAUCUUUUCCUUAAGGACUAUUCACCUAAACUUAAGAGAAUGUGCGAGACAAUGGGAUAUUUUUUCCAUGCUGUUUAUUUU | 0.206 |
| UAGUGAAUGGUUUCCCCAGUGUAUAUGAAUGUUUUAAGUGUUUCCAAUAGCUUAUGAAAUUUAGGAGCUUUCUAAUACUCGUUUUAUAAAUUUAAUCAUUUGCUAAUGGAAAUUUUACCA | 2.31 |

Block 2
Target: ABI1, truncated, D143A, DHFR fusion (Arabidopsis thaliana)
Technique: DHFR PCA, deep sequencing
Medium: yeast
Notes: methotrexate growth selection, single substitutions
Together with: (+)-ABA 0.39 µM
Baseline: wild-type fitted maximum
Reading: higher = stronger binding
Parent: PYL1, truncated, DHFR fusion (Arabidopsis thaliana); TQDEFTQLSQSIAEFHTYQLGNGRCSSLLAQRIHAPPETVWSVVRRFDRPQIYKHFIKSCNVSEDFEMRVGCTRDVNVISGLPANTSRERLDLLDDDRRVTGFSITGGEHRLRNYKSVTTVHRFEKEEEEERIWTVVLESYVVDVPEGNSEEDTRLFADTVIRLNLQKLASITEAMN
| Change | relative binding score [%] |
| --- | --- |
| V121T | -11.8 |
| N77V | 64.1 |
| T135V | -7.84 |
| R90Q | 16.5 |
| S87K | 5.76 |
| E109K | 9.07 |
| D92Y | 2.39 |
| R45V | -4.56 |
| Y53H | 10.3 |
| M176L | 28.6 |
| V118M | 12.2 |
| R46T | -3.53 |
| V145R | -9.83 |
| I79S | 21.9 |
| I52P | -14.8 |
| F124M | 69.7 |
| F66E | 14.9 |
| D144K | -18.7 |
| V118Q | 17 |
| S104T | 54.8 |
| T106P | -10 |
| N114V | -3.89 |
| T86F | 48 |
| Q10A | 60.8 |
| L29Q | -4.13 |

Block 3
Target: CCNE1, cyclin fold, Cln2 fusion (human)
Technique: yeast growth competition, sequencing
Medium: yeast
Notes: strong parent motif
Baseline: not given
Reading: higher = stronger binding
Parent: E2F3 docking peptide (human); PPAKRRLELGESG; partner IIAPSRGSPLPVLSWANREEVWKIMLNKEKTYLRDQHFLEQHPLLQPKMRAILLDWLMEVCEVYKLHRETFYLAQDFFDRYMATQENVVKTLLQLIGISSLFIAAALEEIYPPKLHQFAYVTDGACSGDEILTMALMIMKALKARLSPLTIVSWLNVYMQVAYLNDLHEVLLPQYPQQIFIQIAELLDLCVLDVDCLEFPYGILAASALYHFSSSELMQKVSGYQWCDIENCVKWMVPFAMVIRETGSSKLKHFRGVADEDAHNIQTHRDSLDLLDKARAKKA
| Change | normalised enrichment score |
| --- | --- |
| PPAKRRLELGEAG [S12A] | 1.43 |
| PPAKRALELGESG [R6A] | 0.317 |
| PPAARRLELGESG [K4A] | 0.797 |
| PPAKRRAELGESG [L7A] | -0.0485 |
| PPAKRRLALGESG [E8A] | 0.596 |
| PPAKRRLELAESG [G10A] | 1.2 |
| PPAKRRLEFGESG [L9F] | 5.39 |

Block 4
Target: UBE2C UBC core domain (UniProt O00762)
Technique: yeast two-hybrid
Medium: yeast
Notes: mostly zero background
Baseline: not given
Reading: higher = stronger interaction
B1: TRIM63 RING domain (UniProt Q969Q1); chain PMENLEKQLICPICLEMFTKPVVILPCQHNLCRKCANDIFQAANPYWTSRGSSVSMSGGRFRCPTCRHEVIMDRHGV
B2: MID1 RING domain (UniProt O15344); chain METLESELTCPICLELFEDPLLLPCAHSLCFNCAHRILVSHCATNESVESITAFQCPTCRHVITLSQRGL
B3: TRIM72 RING domain (UniProt Q6ZMU5); chain APGLLHQELSCPLCLQLFDAPVTAECGHSFCRACLGRVAGEPAADGTVLCPCCQAPTRPQALST
B4: RC3H2 RING domain (UniProt Q9HBD1); chain QAAQWTEFLSCPICYNEFDENVHKPISLGCSHTVCKTCLNKLHRKACPFDQTAINTDIDVL
B5: ARK2C RING domain (UniProt Q6ZSG1); chain EGEESDTDEKCTICLSMLEDGEDVRRLPCMHLFHQLCVDQWLAMSKKCPICRVDIETQLGAD
B6: IRF2BPL RING domain (UniProt Q9H1B7); chain SPMANSGPLCCTICHERLEDTHFVQCPSVPSHKFCFPCSRESIKAQGATGEVYCPSGEKCPLVGSNVP
B7: RNF170 RING domain (UniProt Q96K19); chain TRQQFYTDMYCPICLHQASFPVETNCGHLFCGACIIAYWRYGSWLGAISCPICRQTVTLLLTVF
B8: TRIM69 RING domain (UniProt Q86WT6); chain VIQDITMELHCPLCNDWFRDPLMLSCGHNFCEACIQDFWRLQAKETFCPECKMLCQYNNCTF
Residues (chain): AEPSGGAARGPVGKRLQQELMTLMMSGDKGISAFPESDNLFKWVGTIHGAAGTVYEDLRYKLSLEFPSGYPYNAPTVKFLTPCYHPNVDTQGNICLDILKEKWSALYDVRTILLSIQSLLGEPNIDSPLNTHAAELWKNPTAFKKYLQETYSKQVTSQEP
| Molecule | lacZ reporter activity |
| --- | --- |
| B1 (TRIM63 RING domain) | 0 |
| DDENSDNSNECVVCLSDLRDTLILPCRHLCLCTSCADTLRYQANNCPICRLPFRALLQIR (MGRN1 RING domain (UniProt O60291)) | 0 |
| B2 (MID1 RING domain) | 0 |
| B3 (TRIM72 RING domain) | 0 |
| YWAMDSTFELCKICAESNKDVKIEPCGHLLCSCCLAAWQHSDSQTCPFCRCEIKGWEAVS (CBLC RING domain (UniProt Q9ULV8)) | 0 |
| B4 (RC3H2 RING domain) | 0 |
| B5 (ARK2C RING domain) | 0 |
| FPEHFVKSISCQICEHILADPVETNCKHVFCRVCILRCLKVMGSYCPSCRYPCFPTDLES (RAG1 RING domain (UniProt P15918)) | 0 |
| B6 (IRF2BPL RING domain) | 0 |
| B7 (RNF170 RING domain) | 0 |
| QHHELTSLFECPVCFDYVLPPILQCQAGHLVCNQCRQKLSCCPTCRGALTPSIRNL (SIAH2 RING domain (UniProt O43255)) | 0 |
| RLTMMWEEVTCPICLDPFVEPVSIECGHSFCQECISQVGKGGGSVCPVCRQRFLLKNLRP (TRIM21 RING domain (UniProt P19474)) | 0 |
| EDEVSDNSAECVVCLSDVRDTLILPCRHLCLCNTCADTLRYQANNCPICRLPFRALLQIR (RNF157 RING domain (UniProt Q96PX1)) | 0 |
| B8 (TRIM69 RING domain) | 0 |
| FASPPDSNFVCSVCHGVLKRPARLPCSHIFCKKCILRWLARQKTCPCCRKEVKRKKVVH (RNF151 RING domain (UniProt Q2KHN1)) | 0 |
| PEELQAMDNVCIICREEMVTGAKRLPCNHIFHTSCLRSWFQRQQTCPTCRMDVLRASLPA (SYVN1 RING domain (UniProt Q86TM6)) | 0 |

A few entries again (block 4):
| Molecule | lacZ reporter activity |
| --- | --- |
| B5 (ARK2C RING domain) | 0 |
| FPEHFVKSISCQICEHILADPVETNCKHVFCRVCILRCLKVMGSYCPSCRYPCFPTDLES (RAG1 RING domain (UniProt P15918)) | 0 |
| B6 (IRF2BPL RING domain) | 0 |
| B7 (RNF170 RING domain) | 0 |
| QHHELTSLFECPVCFDYVLPPILQCQAGHLVCNQCRQKLSCCPTCRGALTPSIRNL (SIAH2 RING domain (UniProt O43255)) | 0 |
| RLTMMWEEVTCPICLDPFVEPVSIECGHSFCQECISQVGKGGGSVCPVCRQRFLLKNLRP (TRIM21 RING domain (UniProt P19474)) | 0 |
| EDEVSDNSAECVVCLSDVRDTLILPCRHLCLCNTCADTLRYQANNCPICRLPFRALLQIR (RNF157 RING domain (UniProt Q96PX1)) | 0 |
| B8 (TRIM69 RING domain) | 0 |
| FASPPDSNFVCSVCHGVLKRPARLPCSHIFCKKCILRWLARQKTCPCCRKEVKRKKVVH (RNF151 RING domain (UniProt Q2KHN1)) | 0 |
